# Measurements pooled from the literature.
# Compare with care: the assays were run in different laboratories. ± gives the spread as reported.
Compound,cell line,test,conditions,scale,quantity,value
CCOc1ccccc1Nc1nnc(SCC(=O)Nc2cc(F)ccc2F)s1,Jurkat,MTS,"500 µM, 24 h",reference: control,viability,~60%
Cc1cc(SCc2sc(-c3ccc(N(C)C)cc3)nc2C)ccc1OCC(=O)O,HEK293T,,18 h,,CC50,> 50 µM
O=C1Nc2cccc(C#CC3(O)CCNCC3)c2/C1=C/c1cc2ccccc2[nH]1,C8161.9 melanoma cells,,"concentration not given, several days",,viability,no effect
COc1ccccc1-c1nc(C)c(CSc2ccc(OCC(=O)O)c(C)c2)s1,HEK293T,,18 h,,CC50,> 100 µM
COc1ccc(CC(=O)OCc2ccc(-n3cccn3)cc2)cc1F,Jurkat,MTS,up to 100 µM,,viability,> 90%
Cc1nc(-c2ccc(C(F)(F)F)cc2)sc1COc1ccc(CCC(=O)O)cc1,HEK293T,,18 h,,CC50,> 100 µM
COC(=O)[C@@H]1C(c2nc3ccccc3o2)=Cc2cc3c(cc2[C@H]1c1cc(OC)c(OC)c(OC)c1)OCO3,HepG2,Alamar Blue,48 h,,CC50,8.8 ± 0.3 µM
COc1cccc(-c2nc(C)c(CSc3ccc(OCC(=O)O)c(C)c3)s2)c1,HEK293T,,18 h,,CC50,> 80 µM
O=C1CCC(N2Cc3cc(-c4nc5ccccn5c4Nc4ccc5c(c4)OCCO5)ccc3C2=O)C(=O)N1 (stereo not drawn),MOLT-4,"cell viability, CellTiter-Glo",72 h,,EC50,0.005 µM
O=C(/C=C/c1ccc(O)c(OC(F)(F)F)c1)C(CCOCCO)C(=O)/C=C/c1ccc(O)c(OC(F)(F)F)c1,SH-SY5Y,MTT,"0.9 µM, 24 h",,viability,98.2 ± 3.6%
Cc1ccccc1OCCCSCc1nc2ccccc2[nH]1,SW620-GFP tumour organoids,"cytotoxicity, 3D CellTiter-Glo",72 h,,IC50,29.7 µM
Cc1cc(SCc2sc(-c3cc(F)c(F)c(F)c3)nc2C)ccc1OCC(=O)O,HEK293T,,18 h,,CC50,> 100 µM
O=C(O)CCC(C(=O)/C=C/c1ccc(O)c(OC(F)(F)F)c1)C(=O)/C=C/c1ccc(O)c(OC(F)(F)F)c1,SH-SY5Y,MTT,"0.9 µM, 24 h",,viability,99.4 ± 2.2%
COc1cc([C@@H]2c3cc4c(cc3[C@H](CC(C)C)[C@H]3COC(=O)[C@H]23)OCO4)cc(OC)c1OC,mouse splenocytes uninfected,Alamar Blue,48 h,,CC50,16.4 ± 1.7 µM
Cc1cc(SCc2sc(-c3cccc(C(F)(F)F)c3)nc2C)ccc1OCC(=O)O,HEK293T,,18 h,,CC50,> 50 µM
CCOC(=O)C(C(=O)/C=C/c1ccc(O)c(OC(F)(F)F)c1)C(=O)/C=C/c1ccc(O)c(OC(F)(F)F)c1,SH-SY5Y,MTT,"0.9 µM, 24 h",,viability,91.6 ± 2.3%
COc1cc([C@@H]2c3cc4c(cc3C=C(C=O)[C@H]2C(=O)OCc2ccc(CBr)cc2)OCO4)cc(OC)c1OC,mouse splenocytes uninfected,Alamar Blue,48 h,,CC50,34.1 ± 3.5 µM
O=C(O)c1ccc(-c2ccc([N+](=O)[O-])cc2Cl)o1,MRC-5,cell viability,96 h,,IC50,> 100 µM
O=C(/C=C/c1ccc(O)c(OC(F)(F)F)c1)C(CCOCCOC1CCCCO1)C(=O)/C=C/c1ccc(O)c(OC(F)(F)F)c1 (stereo not drawn),SH-SY5Y,MTT,"0.9 µM, 24 h",,viability,94.2 ± 4.1%
COC(=O)[C@@H]1C(C=Nc2ccccc2O)=Cc2cc3c(cc2[C@H]1c1cc(OC)c(OC)c(OC)c1)OCO3,HepG2,Alamar Blue,48 h,,CC50,1.1 µM
Cc1nc(-c2ccc(C(F)(F)F)cc2)sc1CSc1ccc(CCC(=O)O)cc1,HEK293T,,18 h,,CC50,> 100 µM
CCOC(=O)CCC(C(=O)/C=C/c1ccc(O)c(OC(F)(F)F)c1)C(=O)/C=C/c1ccc(O)c(OC(F)(F)F)c1,SH-SY5Y,MTT,"0.9 µM, 24 h",,viability,96.2 ± 2.9%
CCn1nccc1N=CC1=Cc2cc3c(cc2[C@@H](c2cc(OC)c(OC)c(OC)c2)[C@@H]1C(=O)OC)OCO3,mouse splenocytes uninfected,Alamar Blue,48 h,,CC50,8.8 ± 0.5 µM
CCOc1ccc(S(=O)(=O)NC(=O)Cc2ccc(I)cc2)cc1Br,THP1-Dual,ATP luminescence,100 µM,,viability decrease,~20%
COCOCCCC(C(=O)/C=C/c1ccc(O)c(OC(F)(F)F)c1)C(=O)/C=C/c1ccc(O)c(OC(F)(F)F)c1,SH-SY5Y,MTT,"0.9 µM, 24 h",,viability,89 ± 12.7%
COc1cc([C@@H]2c3cc4c(cc3[C@@H](C=C(C)C)[C@H]3COC(=O)[C@H]23)OCO4)cc(OC)c1OC,mouse splenocytes uninfected,Alamar Blue,48 h,,CC50,1.7 ± 0.2 µM
CC(C)(C)OC(=O)CCC(C(=O)/C=C/c1ccc(O)c(OC(F)(F)F)c1)C(=O)/C=C/c1ccc(O)c(OC(F)(F)F)c1,SH-SY5Y,MTT,"0.9 µM, 24 h",,viability,84.5 ± 1.7%
CC(=O)Nc1ccc(NC(=O)C(C)Sc2nnc(Nc3ccccc3F)s2)cc1 (stereo not drawn),Jurkat,MTS,,,concentration reducing viability,≥ 30 µM
NC(=O)c1ccc(-n2cccc2Cc2ccccc2F)cc1N[C@H]1CC[C@H](O)CC1,PC-3 MM-2,,"25 µM, 72 h",,viability,> 95%
COC(=O)[C@@H]1C(C=Nc2cncnc2NC(C)=O)=Cc2cc3c(cc2[C@H]1c1cc(OC)c(OC)c(OC)c1)OCO3,mouse splenocytes uninfected,Alamar Blue,48 h,,CC50,> 100 µM
Cc1cc(SCc2sc(-c3ccc4ccn(C)c4c3)nc2C)ccc1OCC(=O)O,HEK293T,,18 h,,CC50,> 100 µM
CCOC(=O)COC(=O)[C@@H]1C(C=O)=Cc2cc3c(cc2[C@H]1c1cc(OC)c(OC)c(OC)c1)OCO3,mouse splenocytes uninfected,Alamar Blue,48 h,,CC50,> 100 µM
CC(C)(C(=O)/C=C/c1ccc(O)c(OC(F)(F)F)c1)C(=O)/C=C/c1ccc(O)c(OC(F)(F)F)c1,SH-SY5Y,MTT,"0.9 µM, 24 h",,viability,94.1 ± 2.2%

# For quick reference, copied from above:
Compound,cell line,test,conditions,scale,quantity,value
Cc1cc(SCc2sc(-c3ccc(N(C)C)cc3)nc2C)ccc1OCC(=O)O,HEK293T,,18 h,,CC50,> 50 µM
COc1ccc(CC(=O)OCc2ccc(-n3cccn3)cc2)cc1F,Jurkat,MTS,up to 100 µM,,viability,> 90%
COc1cc([C@@H]2c3cc4c(cc3[C@H](CC(C)C)[C@H]3COC(=O)[C@H]23)OCO4)cc(OC)c1OC,mouse splenocytes uninfected,Alamar Blue,48 h,,CC50,16.4 ± 1.7 µM
COc1cc([C@@H]2c3cc4c(cc3C=C(C=O)[C@H]2C(=O)OCc2ccc(CBr)cc2)OCO4)cc(OC)c1OC,mouse splenocytes uninfected,Alamar Blue,48 h,,CC50,34.1 ± 3.5 µM
Cc1cc(SCc2sc(-c3cc(F)c(F)c(F)c3)nc2C)ccc1OCC(=O)O,HEK293T,,18 h,,CC50,> 100 µM
